Assay results from different studies.
Parts stem from different laboratories: compare values within a part only. Values joined by “and” are separate records of one study, mostly repeats; a detail may differ.
UniProt P31645, sequence (whole entry, looked up): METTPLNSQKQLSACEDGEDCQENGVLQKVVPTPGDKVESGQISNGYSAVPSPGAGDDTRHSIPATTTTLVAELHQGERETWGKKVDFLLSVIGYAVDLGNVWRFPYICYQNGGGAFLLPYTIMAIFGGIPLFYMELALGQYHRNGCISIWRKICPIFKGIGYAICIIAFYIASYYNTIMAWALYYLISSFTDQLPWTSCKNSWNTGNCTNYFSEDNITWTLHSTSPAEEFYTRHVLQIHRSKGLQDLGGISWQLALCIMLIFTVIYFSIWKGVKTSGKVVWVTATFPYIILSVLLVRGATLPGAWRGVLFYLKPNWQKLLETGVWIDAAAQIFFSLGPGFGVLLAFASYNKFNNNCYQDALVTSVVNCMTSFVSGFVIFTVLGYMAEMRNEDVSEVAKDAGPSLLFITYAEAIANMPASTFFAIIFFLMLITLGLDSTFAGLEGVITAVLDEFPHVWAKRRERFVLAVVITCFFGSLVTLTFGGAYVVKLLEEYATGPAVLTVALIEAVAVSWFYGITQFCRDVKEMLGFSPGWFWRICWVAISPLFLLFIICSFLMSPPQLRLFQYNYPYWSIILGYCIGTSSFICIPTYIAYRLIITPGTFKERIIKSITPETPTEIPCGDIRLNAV

Set 1
Target: DNA polymerase theta, ATPase domain (POLQ, Homo sapiens, UniProt O75417)
UniProt O75417, sequence (whole entry, unmodified, looked up): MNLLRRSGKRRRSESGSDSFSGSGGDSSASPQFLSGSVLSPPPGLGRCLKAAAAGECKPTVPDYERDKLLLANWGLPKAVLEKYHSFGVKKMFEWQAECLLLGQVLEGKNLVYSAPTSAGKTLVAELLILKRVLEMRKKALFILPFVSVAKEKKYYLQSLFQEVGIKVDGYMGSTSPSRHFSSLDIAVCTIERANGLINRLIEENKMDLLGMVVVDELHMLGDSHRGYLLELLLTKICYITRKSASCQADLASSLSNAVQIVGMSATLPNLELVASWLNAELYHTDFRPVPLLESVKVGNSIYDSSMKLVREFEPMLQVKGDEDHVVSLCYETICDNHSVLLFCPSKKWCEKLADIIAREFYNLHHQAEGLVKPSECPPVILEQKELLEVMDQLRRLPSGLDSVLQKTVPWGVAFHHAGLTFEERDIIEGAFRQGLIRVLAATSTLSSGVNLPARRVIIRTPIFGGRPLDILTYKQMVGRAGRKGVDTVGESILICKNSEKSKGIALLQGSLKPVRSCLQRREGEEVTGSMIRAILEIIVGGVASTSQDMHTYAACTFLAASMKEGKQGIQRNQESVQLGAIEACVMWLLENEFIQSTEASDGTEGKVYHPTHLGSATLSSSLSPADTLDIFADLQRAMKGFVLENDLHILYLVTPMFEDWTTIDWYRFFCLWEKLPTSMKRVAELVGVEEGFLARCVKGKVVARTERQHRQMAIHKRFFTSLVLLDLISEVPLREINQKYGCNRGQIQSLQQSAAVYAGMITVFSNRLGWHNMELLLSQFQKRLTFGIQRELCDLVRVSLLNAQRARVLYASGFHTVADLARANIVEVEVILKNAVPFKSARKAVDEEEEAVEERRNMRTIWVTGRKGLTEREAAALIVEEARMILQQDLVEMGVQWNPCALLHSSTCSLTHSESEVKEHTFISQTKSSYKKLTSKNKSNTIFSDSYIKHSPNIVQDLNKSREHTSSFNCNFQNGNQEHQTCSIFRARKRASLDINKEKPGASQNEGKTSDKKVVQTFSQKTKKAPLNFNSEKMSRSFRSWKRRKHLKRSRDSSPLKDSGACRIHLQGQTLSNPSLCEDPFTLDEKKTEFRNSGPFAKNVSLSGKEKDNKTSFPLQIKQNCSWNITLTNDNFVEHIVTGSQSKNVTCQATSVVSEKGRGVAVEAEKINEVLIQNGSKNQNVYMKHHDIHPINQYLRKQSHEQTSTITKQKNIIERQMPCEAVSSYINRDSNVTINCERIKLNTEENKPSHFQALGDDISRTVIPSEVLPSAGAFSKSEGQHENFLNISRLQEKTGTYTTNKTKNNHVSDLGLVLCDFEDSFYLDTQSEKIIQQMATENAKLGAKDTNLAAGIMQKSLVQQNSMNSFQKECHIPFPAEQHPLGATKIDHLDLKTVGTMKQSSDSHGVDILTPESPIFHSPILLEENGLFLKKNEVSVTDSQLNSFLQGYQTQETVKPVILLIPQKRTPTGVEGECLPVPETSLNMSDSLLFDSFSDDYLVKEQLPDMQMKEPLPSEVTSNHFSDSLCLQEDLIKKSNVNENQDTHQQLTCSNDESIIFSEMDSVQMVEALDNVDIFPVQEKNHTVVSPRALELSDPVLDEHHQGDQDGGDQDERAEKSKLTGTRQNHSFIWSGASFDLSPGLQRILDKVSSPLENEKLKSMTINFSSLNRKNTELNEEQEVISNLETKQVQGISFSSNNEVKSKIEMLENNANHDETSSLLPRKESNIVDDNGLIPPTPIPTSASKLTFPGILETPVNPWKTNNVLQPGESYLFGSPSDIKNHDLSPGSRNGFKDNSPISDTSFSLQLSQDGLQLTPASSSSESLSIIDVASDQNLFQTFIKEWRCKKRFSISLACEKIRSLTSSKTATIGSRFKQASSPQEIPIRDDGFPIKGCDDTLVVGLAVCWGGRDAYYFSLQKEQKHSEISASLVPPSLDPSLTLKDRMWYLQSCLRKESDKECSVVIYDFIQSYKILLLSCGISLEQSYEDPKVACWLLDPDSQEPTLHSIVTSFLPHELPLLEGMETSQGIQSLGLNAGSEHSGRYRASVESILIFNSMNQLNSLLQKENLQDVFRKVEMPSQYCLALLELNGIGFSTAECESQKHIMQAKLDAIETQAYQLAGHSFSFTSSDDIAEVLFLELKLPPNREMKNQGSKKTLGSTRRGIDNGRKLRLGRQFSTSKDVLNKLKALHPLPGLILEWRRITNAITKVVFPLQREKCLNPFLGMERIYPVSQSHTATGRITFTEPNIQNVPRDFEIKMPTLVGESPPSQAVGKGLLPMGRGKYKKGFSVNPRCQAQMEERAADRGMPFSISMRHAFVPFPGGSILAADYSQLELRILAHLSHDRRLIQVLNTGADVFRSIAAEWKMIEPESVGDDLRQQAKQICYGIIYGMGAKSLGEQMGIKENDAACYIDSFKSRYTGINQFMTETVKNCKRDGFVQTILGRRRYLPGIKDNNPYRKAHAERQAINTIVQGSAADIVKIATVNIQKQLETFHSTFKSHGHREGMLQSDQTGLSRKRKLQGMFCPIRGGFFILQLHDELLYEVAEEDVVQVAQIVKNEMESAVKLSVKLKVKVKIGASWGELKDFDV
Observed: enzyme activity
Action: inhibitor
Tested at: 77 µM
Baseline: untreated
SMILES	remaining activity
CC[C@H]1OC(=O)[C@H](C)[C@@H](O[C@H]2C[C@@](C)(OC)[C@@H](O)[C@H](C)O2)[C@H](C)[C@@H](O[C@@H]2O[C@H](C)C[C@H](N(C)C)[C@H]2O)[C@](C)(O)C[C@@H](C)[C@@H]2N[C@@H](COCCOC)O[C@H]([C@H]2C)[C@]1(C)O	93.4% and 99.3%
OC[C@H]1O[C@@H](c2ccc(Cl)c(Cc3ccc(O[C@H]4CCOC4)cc3)c2)[C@H](O)[C@@H](O)[C@@H]1O	99.5%
CCN1CCc2nc(N)oc2CC1	113%
C#CCn1c(=O)c2c(ncn2C)n(C)c1=O	104%
CN(C(=O)CN(CCO)CC(=O)N(C)C(C)(C)Cc1ccccc1)C(C)(C)Cc1ccccc1	103%
CCCCc1c(-c2ccc(O)cc2)[nH]c2nccnc12	86.7%
CNCC(O)c1ccc(OC(=O)C(C)(C)C)c(OC(=O)C(C)(C)C)c1 (stereo not drawn)	91.4%
Cc1noc(NS(=O)(=O)c2ccc(N)cc2)c1C	93.4% and 107%

Set 2
SMILES: CC(=O)N[C@@H](Cc1c[nH]c2ccccc12)C(=O)N[C@@H](CCC(=O)C=[N+]=[N-])C(=O)OC(C)C
Matrix: EL4 tumour
Dose: dose not given
Baseline: vehicle
test	test system	log2 fold change
measured: 2-aminophenol sulfate	mouse, EL4 tumour-bearing	0.92
metabolomics, measured: 5-methylthioadenosine	mouse	-0.786
measured: biliverdin	mouse, EL4 tumour-bearing	-0.45
measured: 1-methylhistidine	mouse, EL4 tumour-bearing	-1.17
measured: fructose	mouse, EL4 tumour-bearing	1.75
measured: ribulose/xylulose	mouse, EL4 tumour-bearing	0.823
measured: ornithine	mouse, EL4 tumour-bearing	0.591
measured: methionine sulfone	Mus musculus	-1.72

Other studies, line by line
Structure (SMILES)	tested on	test	conditions	scale	measurement	result
c1ccc2c(-c3nn4c(-c5ccncc5)nnc4s3)c[nH]c2c1	Gaucher fibroblasts	qPCR, measured: GBA1 mRNA	0.5 µM, unit not given	baseline: vehicle	mRNA level	0.804 and 0.58 and 0.916
O=C(Nc1cccnn1)N1CCC(=Cc2cccc(Oc3ccc(C(F)(F)F)cn3)c2)CC1	Sodium-dependent serotonin transporter (SLC6A4, Homo sapiens, UniProt P31645)	binding, radioligand binding	10 µM		inhibition	20.2%

Excerpt of the above (set 1):
SMILES	remaining activity
CN(C(=O)CN(CCO)CC(=O)N(C)C(C)(C)Cc1ccccc1)C(C)(C)Cc1ccccc1	103%
CCCCc1c(-c2ccc(O)cc2)[nH]c2nccnc12	86.7%
